Results of several laboratories.
Numbered parts are unrelated; each lists some results of a single study.

Study 1
Target: Ras GTPase-activating protein-binding protein 1, C-terminal RGG region (G3BP1, Homo sapiens, UniProt Q13283)
Sequence of UniProt Q13283 (whole entry, looked up): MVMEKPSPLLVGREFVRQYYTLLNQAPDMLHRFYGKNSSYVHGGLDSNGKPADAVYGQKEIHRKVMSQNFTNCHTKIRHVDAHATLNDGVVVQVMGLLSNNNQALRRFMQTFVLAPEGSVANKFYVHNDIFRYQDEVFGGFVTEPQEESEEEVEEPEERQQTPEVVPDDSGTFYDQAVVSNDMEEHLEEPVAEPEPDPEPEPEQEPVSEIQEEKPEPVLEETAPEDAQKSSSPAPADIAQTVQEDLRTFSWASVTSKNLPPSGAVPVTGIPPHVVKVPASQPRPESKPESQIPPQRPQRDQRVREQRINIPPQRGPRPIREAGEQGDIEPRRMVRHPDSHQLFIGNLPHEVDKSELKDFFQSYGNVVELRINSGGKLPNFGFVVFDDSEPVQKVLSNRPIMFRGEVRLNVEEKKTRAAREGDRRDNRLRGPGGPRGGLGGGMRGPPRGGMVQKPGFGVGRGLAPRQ
Technique: RNA Bind-n-Seq
Molecule type: RNA
Medium: in vitro
Concentration: 1 µM
Setting: whole 134-nt RNA, ends assumed
Together with: 150 mM KCl
Relative to: input library
Direction: higher = stronger binding
Quantity: log2 enrichment
All sequences stand within: GGGAGUUCUACAGUCCGACGAUC … UGGAAUUCUCGGGUGUCAAGG
CUGUGCUACACAUCGUAUGUACCGAAUCGGGGAAAAAAAGGGAAAAAAAGGAAAAAAAGGGGAAAGUAUUAUGUUACGCCGUUCGGAUCU: -1.28
CCUGUGCUACACAUCGUAUGUACCGAAUCGGGGAAAAAAGGGGAAAAAAGGAAAAAAGGGAAAGUAUUAUGUUACGCCGUUCGGAUCUGC: -1.73
GCAGGAAGUAAAAACAAAUGGAAAUGCUUCGGAUAGUGGCAGGGGUGGGGGUUGCGAAGGAAAGGGUGGGAUGGGAGUGGGUAAAGAGUU: 2.41
CAAGUCCUGUGCUACACAUCGUAUGUACCGAAUCGGUUUGGUUUUUUUGGAAAGGAAAGUAUUAUGUUACGCCGUUCGGAUCUGCACUUC: -1.62
AAGUCCUGUGCUACACAUCGUAUGUACCGAAUCGGGAAAGGGGAAAGGGAAAGGGGAAAGUAUUAUGUUACGCCGUUCGGAUCUGCACUU: 1.27
CUGUGCUACACAUCGUAUGUACCGAAUCGGGAAAAAAAGGGAAAAAAAGGGGAAAAAAAGGAAAGUAUUAUGUUACGCCGUUCGGAUCUG: -1.15
UCAAGUCCUGUGCUACACAUCGUAUGUACCGAAUCGGGUGGGAGGGUUUUUGGGAAAGUAUUAUGUUACGCCGUUCGGAUCUGCACUUCC: 1.59
AAGUCCUGUGCUACACAUCGUAUGUACCGAAUCGGGAAAAGGGAAAAGGAAAAGGGAAAGUAUUAUGUUACGCCGUUCGGAUCUGCACUU: -1.69
ACCAUGCAGGUGGGCAUCUAAAGGAAGUGGGGCAAGGGGGGGAUAGGGAGGGGGGUAACACUUUGGGAACAGGUGGUCCCAGGUCGUUUC: -1.17

Study 2
Target: RNA binding protein fox-1 homolog 2, RRM domain, GST-SBP tag (RBFOX2, Homo sapiens, UniProt O43251-10, residues 100-194)
Technique: RNA Bind-n-Seq
Molecule type: RNA
Medium: in vitro
Concentration: 365 nM
Setting: natural RNA segment, single round, ends assumed
Relative to: no-protein control
Direction: higher = stronger binding
Quantity: RBNS enrichment (R)
All sequences stand within: GGGAGUUCUACAGUCCGACGAUC … UGGAAUUCUCGGGUGCCAA
Construct (chain): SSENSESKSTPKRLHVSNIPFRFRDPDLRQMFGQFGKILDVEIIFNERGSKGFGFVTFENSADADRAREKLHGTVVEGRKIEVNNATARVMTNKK
GAGAAACUGGAGUGUUUUUGAUUUCAUGGUAAAAGUUUGUGUGUUUUACAUUUGAAUGUUCACAGUUUUCUCUCAGAGAAGUGCCAGACAUUGUUUUGUGCUUUUGAAGA: 2.18
UUCUCAUACCUUCACAUUUCUCAGUCCUGAAGAUUAAGGAAACAAAGCACCGCCUAUUUUGUAUAAAGUUUCUGAUUCCGUCUUGGCUGUCUAGUGCGUGCUAUCUGUGU: 0.966
CACCUCAUUACUGGUGGAUAAUUUAUGUGAUGUGGAUUGCUGGUGUCCAGCAUGACCCAUAAACAGGUCAGAAGAAUGAUGGAAUGUUUUAGAAUAAACUCCUGCUUAUA: 1.33
GUCGGUGGCUUAAAGUAACAUCUAUUUCCAUUGAUCCUAGGUUCUUCCUGACUGCUUUCUCCAACUGUUCACAGCAAAUGCUUGGAUUUUAUGCAGUAGGCAUUACUACA: 0.37
GCAAAAAGGUCUGAAAAGCAAGGGAAUACCAUUAUUUUCGGAUUAGCGGUUUAUUAAGCUCUUCUAUAUUAAACACUAAUAGAUAUUCAAUAACGGAGUAAACUGUUCCA: 0.265
CCUUCAGUGAUAUACUUGUUCGUUCAUUUCUAAAAUGUGAAGCUUUAGGACCAAAUUGUUAGAAAGCAUCAGGAUGACCAGUUAUCUCGAGUAGAUUUUCUUGGAUUUCA: 0.56
GGGAAGGAGGGCCGUGUGGUGCUUUGCUAGAUAGGACGGUUUUUGCAAAGCACCUGGAGAUGUUUGCUGGGAGAUAGACUCCCACUCCACAAAGGUGCUGGGUGGCUCUC: 14.5
CUGCCCAGUGAGCAACUUAUACCCUGCACUGGAUAGUGGCAAGUACCCAGCCUGGGACUUCCCUGGAACUGAGGGAUGCAUAGCUGUCUGGGGAAGCACUGACGGCCACU: 0.577

Study 3
Target: Histone acetyltransferase KAT6A, winged helix 2, GST fusion (KAT6A, Homo sapiens, UniProt Q92794, residues 85-181)
Technique: protein binding microarray
Molecule type: double-stranded DNA, one strand shown
Medium: in vitro
Concentration: not given
Setting: 8-mer, flanks averaged, mean of 2 arrays, mostly near background
Relative to: not given
Direction: higher = stronger binding
Quantity: E-score
Residues (chain): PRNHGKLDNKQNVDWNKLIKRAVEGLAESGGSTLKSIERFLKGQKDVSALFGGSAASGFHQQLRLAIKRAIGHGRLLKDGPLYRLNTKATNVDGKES
AGAAGATG: 0.0825
CGGAAAAA: 0.064
AACGGCAC: 0.0111
GACAACAC: -0.0225
ACCCACGA: 0.103
AGCACTTG: -0.196
TACGATAA: -0.0509
ACTGCGGG: 0.244
CGAGCAAG: 0.0513
ACTTTAGC: -0.0556
ACAAGACC: 0.0458
AAATCCGT: -0.0579
CGGCCAGA: 0.101
ACGGCCCT: -0.0654
GTAGGCTA: -0.0441
AATGCCTA: -0.108
CGTGCTAC: -0.0458
CTAGCTGC: -0.0628
ACACGTGA: -0.388
TGTACTAA: -0.0145

Study 4
Target: RING finger protein unkempt homolog, zinc fingers 1-6, GST-SBP tag (UNK, Homo sapiens, UniProt Q9C0B0, residues 30-357)
Sequence of UniProt Q9C0B0 (30-357, looked up): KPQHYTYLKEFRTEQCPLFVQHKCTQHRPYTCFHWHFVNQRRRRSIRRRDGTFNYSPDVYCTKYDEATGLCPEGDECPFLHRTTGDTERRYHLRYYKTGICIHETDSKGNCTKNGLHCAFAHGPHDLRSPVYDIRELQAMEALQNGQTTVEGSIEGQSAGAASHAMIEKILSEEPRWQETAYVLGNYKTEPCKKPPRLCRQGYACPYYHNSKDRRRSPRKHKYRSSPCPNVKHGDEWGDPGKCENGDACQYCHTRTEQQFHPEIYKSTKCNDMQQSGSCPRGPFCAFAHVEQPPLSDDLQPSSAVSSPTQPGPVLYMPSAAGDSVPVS
Technique: RNA Bind-n-Seq
Molecule type: RNA
Medium: in vitro
Concentration: not given
Setting: RNA with constant flanks, human and mouse sites, ends assumed
Relative to: input RNA pool
Direction: higher = stronger binding
Quantity: bound/input enrichment
All sequences stand within: GGGAGUUCUACAGUCCGACGAUC … CAACAGAGGAUUGAGCAUCA
GUUCUUUUAUUACUUUCAUCUAUACACUUCCAGUGUCGAAGGCUGGACAGAUCUGCUCAUUUUAGCACCUUGGCAAUUAAACAGAAUCCCCUUCUAGCAGAAGCCUAUUCGAAUUUGGGA: 3.09 ratio
AAUGAAUCUGAAGUUGAACCAUCUGUAAAUGCUGAUCUUAAACAAAUGAAUGAAAAUUCUGUGACACACUGUUCUGAAAAUAAUAUGCCGUCUUCUGAUCUUGCGGAUGAAAAGGUUGAA: 0.224 ratio
GCCACCAUGAAAACCUUCUGUGGGACCCCGGAGUACCUGGCGCCUGAGGUGCUGGAGGACAAUGACUAUGGCCGGGCCGUGGACUGGUGGGGGCUGGGUGUGGUCAUGUACGAGAUGAUG: 0.275 ratio
UUCCCACAUCCGUCCUCCCCCUUCCCAGGCCCGGAGUUCCAGACCUUUUGGUCUCCUUUCGUGGUCGUUCCUGGGUCCUUGCCCCCUUUCCCCACUUUGGAGUUCCAGAUUGCAAACCCA: 0.503 ratio
UCUGAUCUCAAUGUGCCUGAGCAGCUGUAUCAGUACAUGGUUGGAGGCCAUAGGCGAUUUCAAACUGGAAUGCACAGGGAGAAACAUAAGUCUCCAAGUUAUCAGAUCAAAGAAGGAGAC: 0.141 ratio
UGCUUCAGAACCCUUGUCUGUUGUGGUAUUGUAGAUGGGUUUAAGUCAUGGCCUCUUUUGAUAGAUUUUGUUGUGUCAUGUGAGCAAGUCAUUACACGAUCUACUGUUGGAAUGAACUGU: 0.252 ratio
GAGGAGGACAAAGAGCCCCUCAUCGAGCUCUUCGUCAAGGCUGGCAGUGAUGGUGAAAGCAUAGGAAACUGCCCCUUUUCCCAGAGGCUCUUCAUGAUUCUUUGGCUCAAAGGAGUUGUA: 0.119 ratio
CGCAUUUUGAUGGUUGGAUUGGAUGCUGCUGGCAAGACAACCAUUCUGUAUAAACUGAAGUUAGGGGAGAUAGUCACCACCAUUCCUACCAUUGGUUUUAAUGUGGAAACAGUAGAAUAU: 0.68 ratio

A few entries again (study 1):
AAGUCCUGUGCUACACAUCGUAUGUACCGAAUCGGGAAAGGGGAAAGGGAAAGGGGAAAGUAUUAUGUUACGCCGUUCGGAUCUGCACUU: 1.27
CUGUGCUACACAUCGUAUGUACCGAAUCGGGAAAAAAAGGGAAAAAAAGGGGAAAAAAAGGAAAGUAUUAUGUUACGCCGUUCGGAUCUG: -1.15
UCAAGUCCUGUGCUACACAUCGUAUGUACCGAAUCGGGUGGGAGGGUUUUUGGGAAAGUAUUAUGUUACGCCGUUCGGAUCUGCACUUCC: 1.59
AAGUCCUGUGCUACACAUCGUAUGUACCGAAUCGGGAAAAGGGAAAAGGAAAAGGGAAAGUAUUAUGUUACGCCGUUCGGAUCUGCACUU: -1.69
ACCAUGCAGGUGGGCAUCUAAAGGAAGUGGGGCAAGGGGGGGAUAGGGAGGGGGGUAACACUUUGGGAACAGGUGGUCCCAGGUCGUUUC: -1.17
